Experimental data gathered from unrelated publications.
Each numbered part is a random draw from the data of one study; scales do not carry over between parts.
Sequence of UniProt P35590 (whole entry, looked up): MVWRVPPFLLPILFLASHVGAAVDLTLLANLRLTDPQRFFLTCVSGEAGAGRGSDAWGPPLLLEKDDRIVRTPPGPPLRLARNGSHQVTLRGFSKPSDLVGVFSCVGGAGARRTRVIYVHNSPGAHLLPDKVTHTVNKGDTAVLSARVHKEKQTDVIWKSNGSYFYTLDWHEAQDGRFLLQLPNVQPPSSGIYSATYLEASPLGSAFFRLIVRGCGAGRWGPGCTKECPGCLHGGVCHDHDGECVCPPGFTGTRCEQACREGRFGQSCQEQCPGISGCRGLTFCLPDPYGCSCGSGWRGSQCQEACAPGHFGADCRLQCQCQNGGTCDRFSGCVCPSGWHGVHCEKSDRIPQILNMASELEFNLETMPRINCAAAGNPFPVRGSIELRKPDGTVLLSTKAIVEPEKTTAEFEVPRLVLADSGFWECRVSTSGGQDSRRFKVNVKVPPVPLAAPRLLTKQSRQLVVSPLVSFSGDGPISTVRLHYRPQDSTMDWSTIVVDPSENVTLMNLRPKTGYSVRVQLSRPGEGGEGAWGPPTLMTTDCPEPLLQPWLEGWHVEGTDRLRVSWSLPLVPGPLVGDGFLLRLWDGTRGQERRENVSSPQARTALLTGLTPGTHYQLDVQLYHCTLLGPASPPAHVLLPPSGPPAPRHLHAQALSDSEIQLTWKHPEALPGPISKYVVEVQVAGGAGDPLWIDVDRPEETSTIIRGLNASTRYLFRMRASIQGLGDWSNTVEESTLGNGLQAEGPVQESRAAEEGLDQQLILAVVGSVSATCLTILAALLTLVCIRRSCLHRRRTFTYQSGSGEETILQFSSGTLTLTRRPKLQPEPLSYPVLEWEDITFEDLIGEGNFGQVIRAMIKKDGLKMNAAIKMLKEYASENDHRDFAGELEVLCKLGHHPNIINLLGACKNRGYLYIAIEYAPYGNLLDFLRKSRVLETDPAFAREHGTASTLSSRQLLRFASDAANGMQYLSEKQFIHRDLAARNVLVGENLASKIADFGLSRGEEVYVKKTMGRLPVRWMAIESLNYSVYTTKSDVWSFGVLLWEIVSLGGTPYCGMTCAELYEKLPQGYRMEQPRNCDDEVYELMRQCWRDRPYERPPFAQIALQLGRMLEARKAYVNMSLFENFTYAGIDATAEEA
Sequence of UniProt Q06187 (whole entry, looked up): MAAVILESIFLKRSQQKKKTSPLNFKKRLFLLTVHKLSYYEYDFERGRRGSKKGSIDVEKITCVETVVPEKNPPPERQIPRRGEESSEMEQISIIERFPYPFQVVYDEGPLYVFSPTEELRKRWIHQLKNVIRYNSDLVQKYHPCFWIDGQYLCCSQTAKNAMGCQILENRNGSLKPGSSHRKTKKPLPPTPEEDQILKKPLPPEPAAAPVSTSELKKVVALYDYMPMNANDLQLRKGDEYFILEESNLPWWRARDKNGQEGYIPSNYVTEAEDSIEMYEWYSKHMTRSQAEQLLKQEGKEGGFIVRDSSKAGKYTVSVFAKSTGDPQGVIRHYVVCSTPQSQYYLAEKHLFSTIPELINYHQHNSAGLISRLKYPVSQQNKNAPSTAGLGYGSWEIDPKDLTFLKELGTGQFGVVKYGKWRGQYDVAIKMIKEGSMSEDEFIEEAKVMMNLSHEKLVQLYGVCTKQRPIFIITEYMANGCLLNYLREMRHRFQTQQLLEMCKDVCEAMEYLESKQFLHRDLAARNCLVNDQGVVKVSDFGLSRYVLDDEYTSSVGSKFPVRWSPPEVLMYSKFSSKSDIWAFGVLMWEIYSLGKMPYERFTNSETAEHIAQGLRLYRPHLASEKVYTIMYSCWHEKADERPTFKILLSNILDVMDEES
Sequence of UniProt O75914 (whole entry, looked up): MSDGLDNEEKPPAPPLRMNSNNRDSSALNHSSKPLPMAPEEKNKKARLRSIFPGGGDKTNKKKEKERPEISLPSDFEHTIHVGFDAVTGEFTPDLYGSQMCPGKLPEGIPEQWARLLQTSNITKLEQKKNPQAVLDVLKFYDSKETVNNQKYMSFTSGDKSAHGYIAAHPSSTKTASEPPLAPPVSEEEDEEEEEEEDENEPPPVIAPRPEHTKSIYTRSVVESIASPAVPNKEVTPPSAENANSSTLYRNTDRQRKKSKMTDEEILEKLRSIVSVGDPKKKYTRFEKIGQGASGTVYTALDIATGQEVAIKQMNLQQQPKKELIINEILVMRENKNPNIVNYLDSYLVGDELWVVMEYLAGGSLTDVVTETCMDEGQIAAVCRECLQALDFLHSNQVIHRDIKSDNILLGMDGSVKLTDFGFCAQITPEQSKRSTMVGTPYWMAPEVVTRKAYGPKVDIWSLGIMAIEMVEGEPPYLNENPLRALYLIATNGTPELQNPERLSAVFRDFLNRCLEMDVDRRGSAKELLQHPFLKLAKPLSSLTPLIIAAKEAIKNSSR
Sequence of UniProt P22607 (whole entry, unmodified, looked up): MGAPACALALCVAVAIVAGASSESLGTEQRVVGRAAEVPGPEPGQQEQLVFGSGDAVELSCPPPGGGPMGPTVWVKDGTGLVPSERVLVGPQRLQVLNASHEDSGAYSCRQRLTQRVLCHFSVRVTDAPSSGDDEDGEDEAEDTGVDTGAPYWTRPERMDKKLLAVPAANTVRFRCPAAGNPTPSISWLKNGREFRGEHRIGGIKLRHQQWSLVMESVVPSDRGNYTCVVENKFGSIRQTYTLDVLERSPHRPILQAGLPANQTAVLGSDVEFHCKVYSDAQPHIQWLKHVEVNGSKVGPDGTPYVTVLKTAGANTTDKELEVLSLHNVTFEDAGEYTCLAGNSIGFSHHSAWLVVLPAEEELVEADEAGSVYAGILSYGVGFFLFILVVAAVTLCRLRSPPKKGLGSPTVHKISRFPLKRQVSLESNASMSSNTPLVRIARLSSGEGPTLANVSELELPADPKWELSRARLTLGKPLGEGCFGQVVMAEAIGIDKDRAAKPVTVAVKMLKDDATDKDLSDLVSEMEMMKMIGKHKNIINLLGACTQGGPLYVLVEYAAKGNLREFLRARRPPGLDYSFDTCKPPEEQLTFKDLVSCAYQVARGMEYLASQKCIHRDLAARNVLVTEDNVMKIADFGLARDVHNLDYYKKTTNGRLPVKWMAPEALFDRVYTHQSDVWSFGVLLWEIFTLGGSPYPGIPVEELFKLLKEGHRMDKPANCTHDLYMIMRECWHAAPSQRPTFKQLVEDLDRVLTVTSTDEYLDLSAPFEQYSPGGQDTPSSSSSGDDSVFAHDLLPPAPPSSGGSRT
Sequence of UniProt Q16539 (whole entry, looked up): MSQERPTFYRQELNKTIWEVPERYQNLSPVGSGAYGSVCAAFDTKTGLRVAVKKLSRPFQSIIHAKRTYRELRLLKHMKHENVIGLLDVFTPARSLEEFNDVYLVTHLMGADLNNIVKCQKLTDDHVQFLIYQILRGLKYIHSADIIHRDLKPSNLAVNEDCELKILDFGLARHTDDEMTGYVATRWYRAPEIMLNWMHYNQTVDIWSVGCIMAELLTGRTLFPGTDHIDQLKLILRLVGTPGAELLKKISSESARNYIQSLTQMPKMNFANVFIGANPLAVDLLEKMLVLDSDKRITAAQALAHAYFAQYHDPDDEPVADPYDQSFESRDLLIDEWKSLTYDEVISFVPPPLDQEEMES
Sequence of UniProt P11802 (whole entry, looked up): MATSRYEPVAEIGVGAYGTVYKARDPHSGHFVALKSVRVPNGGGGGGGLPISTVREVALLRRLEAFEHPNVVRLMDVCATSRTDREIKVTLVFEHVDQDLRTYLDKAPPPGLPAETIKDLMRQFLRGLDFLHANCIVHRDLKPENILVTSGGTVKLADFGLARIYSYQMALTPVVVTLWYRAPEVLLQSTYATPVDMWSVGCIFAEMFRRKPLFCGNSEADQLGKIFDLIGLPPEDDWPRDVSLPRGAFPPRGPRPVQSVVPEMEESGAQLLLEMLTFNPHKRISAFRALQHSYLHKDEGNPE
Sequence of UniProt O95747 (whole entry, looked up): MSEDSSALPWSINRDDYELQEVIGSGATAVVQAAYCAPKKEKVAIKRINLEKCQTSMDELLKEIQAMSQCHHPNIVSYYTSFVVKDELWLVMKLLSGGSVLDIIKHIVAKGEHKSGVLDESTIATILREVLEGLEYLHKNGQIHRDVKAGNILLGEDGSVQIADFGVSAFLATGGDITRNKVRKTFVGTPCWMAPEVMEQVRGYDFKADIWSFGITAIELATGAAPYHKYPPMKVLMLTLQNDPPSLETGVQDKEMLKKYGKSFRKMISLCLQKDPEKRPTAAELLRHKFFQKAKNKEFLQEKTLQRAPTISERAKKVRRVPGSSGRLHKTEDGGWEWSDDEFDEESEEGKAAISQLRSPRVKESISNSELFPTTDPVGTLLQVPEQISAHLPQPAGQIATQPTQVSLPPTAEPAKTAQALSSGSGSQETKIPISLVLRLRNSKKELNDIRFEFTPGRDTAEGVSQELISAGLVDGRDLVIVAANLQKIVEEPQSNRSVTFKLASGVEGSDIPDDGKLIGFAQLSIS

Set 1
Species: mouse
Medium: microsomes or S9
Tested at: 2 µM
Time: 0.5 h
Structure (SMILES) | remaining compound [%]
CCO[C@H]1CN(Cc2cc(=O)c3c(C)ccc(C)c3[nH]2)C[C@@H]1O | 17.6
Clc1ccc2c(c1)nc(-c1cccnc1Cl)n1ncc(Br)c21 | > 100
CCCn1ccnc1C1CC(=O)Nc2cc(O)c(OC)cc21 (stereo not drawn) | 83.4
CCOC(=O)c1cc(C(C)C)sc1NC(=O)c1cc(Cl)ccc1OC | 32

Set 2
Target: FOXO3, forkhead domain (mouse, UniProt Q9WVH4, residues 31-263)
Sequence of UniProt Q9WVH4 (31-263, looked up): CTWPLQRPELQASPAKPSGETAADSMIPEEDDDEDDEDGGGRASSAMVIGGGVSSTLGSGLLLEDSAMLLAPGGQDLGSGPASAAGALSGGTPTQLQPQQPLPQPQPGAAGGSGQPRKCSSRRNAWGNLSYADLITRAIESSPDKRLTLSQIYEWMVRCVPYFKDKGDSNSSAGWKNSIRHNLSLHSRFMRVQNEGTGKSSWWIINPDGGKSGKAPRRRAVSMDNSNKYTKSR
Technique: protein-binding microarray
Molecule type: hairpin DNA
Medium: in vitro
Tested at: not given
Setting: whole hairpin DNA, median over replicate spots
Reference: not given
Reading: higher = stronger binding
All sequences stand within: GAGGCCATG … CATGGCCTCACACTC
Sequence | median fluorescence
TTAACAACGCCTCCTGGCGTTGTTAA | 3760 a.u.
CAAACCGCGCCTCCTGGCGCGGTTTG (5mC at 15 29) | 4820 a.u.
TAGACAACGCCTCCTGGCGTTGTCTA | 4120 a.u.
TAAACACGGCCTCCTGGCCGTGTTTA (5mC at 16 28) | 4540 a.u.
TAAAAAACGCCTCCTGGCGTTTTTTA | 3460 a.u.
TAAACAATGCCTCCTGGCATTGTTTA | 5320 a.u.
TCAACAACGCCTCCTGGCGTTGTTGA (5mC at 11) | 4470 a.u.
CAACCAACGCCTCCTGGCGTTGGTTG (5mC at 13) | 4620 a.u.

Set 3
Compound: CN1CCN(c2cnc3c(C4CCN(C(=O)c5ccc(OC(F)(F)F)cc5N)CC4)ncnc3c2)CC1
Observed: cell-free assay
Technique: competition with immobilised ligand
Tested at: 1 µM
target | remaining binding [%]
FGFR3 (Homo sapiens, UniProt P22607, G697C) | 100
RET (Homo sapiens, UniProt P07949, V804L) | 97
BTK (Homo sapiens, UniProt Q06187) | 100
MAPK9 (Homo sapiens, UniProt P45984) | 100
PAK3 (Homo sapiens, UniProt O75914) | 88
Tyrosine-protein kinase ABL1, non-phosphorylated (ABL1, Homo sapiens, UniProt P00519, Q252H) | 79
TIE1 (Homo sapiens, UniProt P35590) | 80
PIK3CA (Homo sapiens, UniProt P42336) | 95
CASK (Homo sapiens, UniProt O14936) | 89
MAPK14 (Homo sapiens, UniProt Q16539) | 99
TLK1 (Homo sapiens, UniProt Q9UKI8) | 100
OXSR1 (Homo sapiens, UniProt O95747) | 100
Cyclin-dependent kinase 4, with cyclin D1 (CDK4, Homo sapiens, UniProt P11802) | 98

Set 4
Target: UBE2E1 UBC core domain (UniProt P51965)
Sequence of UniProt P51965 (whole entry, looked up): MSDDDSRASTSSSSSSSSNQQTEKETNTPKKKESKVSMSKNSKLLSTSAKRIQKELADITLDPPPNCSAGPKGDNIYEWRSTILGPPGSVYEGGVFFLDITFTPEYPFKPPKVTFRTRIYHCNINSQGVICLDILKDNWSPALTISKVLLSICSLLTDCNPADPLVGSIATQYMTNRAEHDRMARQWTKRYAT
Technique: yeast two-hybrid
Medium: yeast
Setting: mostly zero background
Reference: not given
Reading: higher = stronger interaction
B1: RNF2 RING domain (UniProt Q99496); chain SPRSLHSELMCPICLDMLKNTMTTKECLHRFCADCIITALRSGNKECPTCRKKLVSKRSLR
B2: RNF31 RING domain (UniProt Q96EP0); chain AFLRRLLAQECAVCGWALPHNRMQALTSCECTICPDCFRQHFTIALKEKHITDMVCPACGRPDLTDDTQLL
B3: RNF166 RING domain (UniProt Q96A37); chain GDSGLEAQYTCPICLEVYHRPVAIGSCGHTFCGECLQPCLQVPSPLCPLCRLPFDPKKVDK
B4: TRIM54 RING domain (UniProt Q9BYV2); chain SMDNLEKQLICPICLEMFSKPVVILPCQHNLCRKCANDVFQASNPLWQSRGSTTVSSGGRFRCPSCRHEVVLDRHGV
Sequence | lacZ reporter activity
B1 (RNF2 RING domain) | 0
MNDVLENELQCIICSEYFIEAVTLNCAHSFCSYCINEWMKRKIECPICRKDIKSKTYSL (RNF8 RING domain (UniProt O76064)) | 0
AEADPLGRFTCPVCLEVYEKPVQVPCGHVFCSACLQECLKPKKPVCGVCRSALAPGVRAV (RNF114 RING domain (UniProt Q9Y508)) | 0
B2 (RNF31 RING domain) | 0
QVQSRTKIEECVVCSDKKAAVLFQPCGHMCACENCANLMKKCVQCRAVVERRVPFI (MIB1 RING domain (UniProt Q86YT6)) | 0
B3 (RNF166 RING domain) | 0
KPDKMEETLTCIICQDLLHDCVSLQPCMHTFCAACYSGWMERSSLCPTCRCPVERICKNH (CHFR RING domain (UniProt Q96EP1)) | 0
B4 (TRIM54 RING domain) | 0

For quick reference, copied from above (set 2):
Sequence | median fluorescence
TAAACACGGCCTCCTGGCCGTGTTTA (5mC at 16 28) | 4540 a.u.
TTAACAACGCCTCCTGGCGTTGTTAA | 3760 a.u.
CAAACCGCGCCTCCTGGCGCGGTTTG (5mC at 15 29) | 4820 a.u.
